# Assay results collected from several papers.
# Compare with care: the assays were run in different laboratories. Numbers after ± are the reported error.
# Target: Cytochrome P450 1A2 (CYP1A2, Homo sapiens, UniProt P05177)
# UniProt P05177, sequence (whole entry, looked up): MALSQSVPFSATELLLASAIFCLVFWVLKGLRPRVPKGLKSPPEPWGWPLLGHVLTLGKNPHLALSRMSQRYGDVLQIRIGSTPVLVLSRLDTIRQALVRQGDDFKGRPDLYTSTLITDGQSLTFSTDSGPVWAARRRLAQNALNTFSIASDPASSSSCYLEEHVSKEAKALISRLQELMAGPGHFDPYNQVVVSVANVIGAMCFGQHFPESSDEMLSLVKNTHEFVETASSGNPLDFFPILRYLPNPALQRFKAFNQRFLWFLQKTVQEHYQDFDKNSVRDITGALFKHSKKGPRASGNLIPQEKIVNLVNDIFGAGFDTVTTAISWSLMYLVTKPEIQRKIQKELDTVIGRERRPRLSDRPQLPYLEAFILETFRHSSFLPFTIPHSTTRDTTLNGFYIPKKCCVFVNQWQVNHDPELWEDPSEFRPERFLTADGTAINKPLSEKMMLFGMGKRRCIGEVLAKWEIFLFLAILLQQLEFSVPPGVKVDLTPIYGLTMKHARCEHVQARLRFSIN
Structure (SMILES),assay,test system,setting,IC50
Cc1cc(O[C@@H]2CCOC2)cc(C(=O)Nc2ccc(F)cn2)n1,inhibitor,,,> 30 µM
CCOc1cc(-c2nncn2C)ccc1Nc1ncc2cc(C)nc(NCC(C)(C)C)c2n1,"enzyme activity, inhibitor",,,10 to 50 µM
O=C(NCCN1CCCC1)c1cc(-c2ccc(CN3CCOCC3)cc2)nc2ccc(F)cc12,"enzyme activity, inhibitor",human liver microsomes,with: phenacetin,> 100 µM
O=c1cc(-c2ccccc2)oc2ccc(O)cc12,"enzyme activity, inhibitor, LC-MS/MS, refers to: acetaminophen",human liver microsomes,"30 min, pH 7.4, with: phenacetin",2.9 ± 0.35 µM
CCOC(=O)[C@@]12C[C@@H]1[C@@H](n1ccc3c(NC)nc(C#Cc4ccc(Cl)s4)nc31)[C@H](O)[C@@H]2O,"enzyme activity, inhibitor",human liver microsomes,"10 min, pH 7.4, with: tacrine substrate",26 µM
O=c1c(O)c(-c2ccccc2)oc2ccc(O)cc12,"enzyme activity, inhibitor, LC-MS/MS, refers to: acetaminophen",human liver microsomes,"30 min, pH 7.4, with: phenacetin",0.81 ± 0.11 µM
Cc1cc(OC2COC2)cc(C(=O)Nc2ccc(F)cn2)n1,inhibitor,,,5.8 µM
CC(C)=CCc1c(O)cc(O)c2c1O[C@H](c1ccc(O)cc1)CC2=O,inhibitor,,pH 7.4,1.1 ± 0.2 µM
COc1ccc2oc(-c3ccccc3)cc(=O)c2c1,"enzyme activity, inhibitor, LC-MS/MS, refers to: acetaminophen",human liver microsomes,"30 min, pH 7.4, with: phenacetin",15.7 ± 1.83 µM
Cc1nc(-c2cnc(NC(C)C)n(C)c2=O)ccc1Oc1ccnc(-c2cnn(C)c2)c1,"direct inhibition, inhibitor",,no preincubation,> 100 µM
N#Cc1ccc(Nc2nc(N)cc(Oc3c(F)cc(-c4ccc(C#N)cc4)cc3F)n2)cc1,,human liver microsomes,with: phenacetin 20 µM,> 50 µM
